Experimental data from different studies.
Each line is one published result; not all experiments were run side by side. “And” joins repeats or separate records; there may be more than shown. ± marks the error that the study gave.
FGFR1: Fibroblast growth factor receptor 1 (FGFR1, Homo sapiens, UniProt P11362)
SLC6A4: Sodium-dependent serotonin transporter (SLC6A4, Homo sapiens, UniProt P31645)

CC(C)S(=O)(=O)c1ccc(S(=O)(=O)C(C)C)c(O)c(=O)c1O
IC50 (Protein P, RNase H domain (P, Hepatitis B virus genotype D subtype ayw, UniProt P03156); RNase H activity, inhibitor; Hepatitis B virus): 254000 ± 26000 nM

C#Cc1cccc(Nc2ncnc3cc(OC)c(OCCCN4CCOCC4)cc23)c1
IC50 (Receptor tyrosine-protein kinase erbB-4 (ERBB4, Homo sapiens, UniProt Q15303); kinase activity, inhibitor; with: ATP 80.8 µM): 12 nM and 11 nM

COc1cc2nccc(Oc3cc(F)c(NC(=S)NC4CC4)c(F)c3)c2cc1C(N)=O
IC50 (FGFR1): 541 nM

CN(C)CCN(Cc1ccncc1)Cc1c(Cl)cccc1Cl
IC50 (SLC6A4; transporter uptake, inhibitor, radiometric): 3840 nM

C[C@]12CCC(=O)C=C1CCC1C2CC[C@]2(C)C(c3cccnc3)=CCC12 (some centres unmarked)
IC50 (Androgen receptor (AR, Homo sapiens, UniProt P10275, T878A); binding; LNCaP; mutant receptor, with: [3H]-R1881 0.1 nM): 5.3 nM

CC1OC(Oc2c(-c3ccc(O)cc3)oc3cc(O)cc(O)c3c2=O)C(OC(=O)C=Cc2ccc(O)cc2)C(O)C1OC(=O)C=Cc1ccc(O)cc1 (centres unmarked)
IC50 (C-X-C chemokine receptor type 5 (CXCR5, Homo sapiens, UniProt P32302); calcium flux, antagonist; 293FT GCaMP6 transfected): > 10000 nM

COc1cc2nccc(Oc3ccc(NC(=S)NC(C)(C)C(F)(F)F)c(Cl)c3)c2cc1C(N)=O
IC50 (FGFR1): 1420 nM

NCCCC[C@@H](NC(=O)CCCCCNC(=O)c1ccc(-c2ccnc(N)n2)s1)C(=O)NCCCCCC(=O)N[C@H](CCCN=C(N)N)C(=O)N[C@H](CCCN=C(N)N)C(=O)N[C@H](CCCN=C(N)N)C(=O)N[C@H](CCCN=C(N)N)C(=O)N[C@H](CCCN=C(N)N)C(=O)N[C@H](CCCN=C(N)N)C(N)=O
IC50 (cGMP-dependent protein kinase 1, isoform alpha (PRKG1, Homo sapiens, UniProt Q13976); inhibitor, fluorescence anisotropy displacement; with: ARC-1059 probe and cGMP): 10.7 nM

COCCCN1CCc2c(Cc3ccc(Cl)cc3)[nH]c3c(OC(F)F)ccc(c23)C1=O
IC50 (cGMP-specific 3',5'-cyclic phosphodiesterase (PDE5A, Homo sapiens, UniProt O76074); enzyme activity, inhibitor): 8.3 nM

Cc1ccc(CNC(=O)[C@H](CC(C)C)NC(=O)[C@H](CCc2ccccc2)NC(=O)c2cnc(C)cn2)cc1
IC50 (20S proteasome (Plasmodium falciparum, UniProt A0A5K1K7U1+Q8IJT1); β5 activity, inhibitor; with: Suc-LLVY-AMC, PA28α-activated): 105 nM

CC[C@H](C)[C@H](NC(=O)[C@H](CO)NC(=O)[C@H](Cc1ccc(O)cc1)NC(=O)[C@H](CC(=O)O)NC(=O)[C@H](CO)NC(=O)[C@@H](NC(=O)[C@@H](N)Cc1ccccc1)[C@@H](C)CC)C(=O)N[C@@H](C)C(=O)N[C@@H](CCSC)C(=O)N[C@@H](CC(=O)O)C(=O)N[C@@H](CCCCN)C(=O)N[C@H](C(=O)N[C@@H](Cc1c[nH]cn1)C(=O)N[C@@H](CCC(N)=O)C(=O)N[C@@H](CCC(N)=O)C(=O)N[C@@H](CC(=O)O)C(=O)N[C@@H](Cc1ccccc1)C(=O)N[C@H](C(=O)N[C@@H](CC(N)=O)C(=O)N[C@@H](Cc1c[nH]c2ccccc12)C(=O)N[C@@H](CC(C)C)C(=O)N[C@@H](CC(C)C)C(=O)N[C@@H](C)C(=O)N[C@@H](CCC(N)=O)C(=O)N[C@@H](CCCCN)C(N)=O)C(C)C)[C@@H](C)CC
IC50 (Gastric inhibitory polypeptide receptor (GIPR, Homo sapiens, UniProt P48546); ligand displacement in cells, radioligand): 339 nM

COc1ccc2cc(C(=O)NCCN3CCC(Cc4ccccc4)CC3)ccc2c1
IC50 (SLC6A4; transporter uptake): 490 to 3190 nM

CNC(=O)C(Cc1c[nH]c2ncccc12)NC(=O)C(OC)c1ccc(Oc2ccccc2)cc1 (centres unmarked)
IC50 (Epithelial discoidin domain-containing receptor 1 (DDR1, Homo sapiens, UniProt Q08345); cell-free assay): 1400 nM

NCc1cccc(C2CCN(C(=O)c3cccc(NC(=O)C(=O)C4(O)CCC4)c3)CC2)c1
IC50 (Tryptase beta-1 (Homo sapiens, UniProt Q15661); enzyme activity, inhibitor, AMC substrate release): 189 nM

C[C@@H](O)[C@H](NC(=O)CP(=O)(O)OC[C@H]1O[C@@H](n2cnc3c(N)ncnc32)[C@H](O)[C@@H]1O)C(=O)O
IC50 (tsaD/tsaC, with TsaB and TsaE (Escherichia coli, UniProt P05852+P45748); HPLC; pH 7.5, 23 °C, with: 5 mM ATP): 5600 nM

CC(C)(C)NC(=O)C(CCc1ccccc1)N(CCc1ccccc1)C(=O)[C@@H](N)Cc1c[nH]c2ccccc12 (mixture of isomers)
IC50 (Endothiapepsin (EAPA, Cryphonectria parasitica, UniProt P11838); enzyme activity, inhibitor, fluorescence): 129000 nM

CC[C@H](C)[C@H](NC(C)=O)C(=O)N[C@H](CC(=O)N[C@H](C(=O)N[C@@H](C)C(=O)N[C@@H](CCC(N)=O)C(=O)N[C@@H](CCC(=O)O)CC(=O)N[C@@H](CC(C)C)C(=O)N[C@@H](CCCNC(=N)N)C(=O)N[C@@H](CCCNC(=N)N)CC(=O)N[C@H](C(=O)NCC(=O)N[C@@H](CC(=O)O)C(=O)N[C@@H](CCC(=O)O)CC(=O)N[C@@H](Cc1ccccc1)C(=O)N[C@@H](CC(N)=O)C(=O)N[C@@H](C)CC(=O)N[C@@H](Cc1ccc(O)cc1)C(=O)N[C@@H](Cc1ccc(O)cc1)C(N)=O)[C@@H](C)CC)[C@@H](C)CC)Cc1c[nH]c2ccccc12
IC50 (Bcl-2-like protein 1 (BCL2L1, Homo sapiens, UniProt Q07817); competition SPR; pH 7.4, with: BimBH3 peptide): 1000 ± 25 nM

Repeated from above:
CC1OC(Oc2c(-c3ccc(O)cc3)oc3cc(O)cc(O)c3c2=O)C(OC(=O)C=Cc2ccc(O)cc2)C(O)C1OC(=O)C=Cc1ccc(O)cc1 (centres unmarked)
IC50 (C-X-C chemokine receptor type 5 (CXCR5, Homo sapiens, UniProt P32302); calcium flux, antagonist; 293FT GCaMP6 transfected): > 10000 nM

COc1cc2nccc(Oc3ccc(NC(=S)NC(C)(C)C(F)(F)F)c(Cl)c3)c2cc1C(N)=O
IC50 (FGFR1): 1420 nM
